Experimental data collected from several papers.
Each line is one published result; not all experiments were run side by side. Several values in a cell are separate wells, animals, samples, runs or records. Numbers after ± are the reported error.

| SMILES | cell line | assay | system | setting | how to read | quantity | value |
| --- | --- | --- | --- | --- | --- | --- | --- |
| CNC(=O)C[C@H](Cc1ccncc1)NC(=O)[C@@H](Cc1cccc(Br)c1)NC(=O)[C@@H](N)Cc1ccsc1 | Huh-7-ACE2 | CellTiter-Glo |  | 6.25 µM, 48 h, unit not given | reference: DMSO | viability | 1.04 and 0.927 and 0.902 |
| CC(=O)N[C@H]1[C@H](Oc2ccc(C[C@H](NC(=O)CN)C(=O)N[C@@H](CCC(=O)O)C(=O)N[C@H](C(=O)N[C@@H](Cc3c[nH]cn3)C(=O)N[C@@H](Cc3c[nH]cn3)C(=O)N[C@@H](CCC(N)=O)C(=O)N[C@@H](CCCCN)C(=O)N[C@@H](CC(C)C)C(=O)N[C@H](C(=O)N[C@@H](Cc3ccccc3)C(=O)N[C@@H](Cc3ccccc3)C(=O)N[C@@H](C)C(N)=O)C(C)C)C(C)C)cc2)O[C@H](CO)[C@H](O)[C@@H]1O | SH-SY5Y | CCK-8 |  | 50 µM, 24 h | reference: untreated | viability | 95.6% and 95.9% and 86.7% and 96.3% |
| CC(C)Cc1ccc(C(C)C(=O)[O-])cc1.CC(C)Cc1ccc(C(C)C(=O)[O-])cc1.[Cu+2].c1ccncc1.c1ccncc1 (centres unmarked) | PC-3 | cytotoxicity, MTT |  | 48 h |  | IC50 | > 100 µM |
| CCCCN(C=O)c1c(CC)nc2ccc(C(=O)N(C)Cc3ccco3)cn12 | SH-SY5Y | sulforhodamine B |  | concentration not given |  | cytotoxicity | toxic |
| CC(=O)NCC(=O)N[C@@H](CCCNC(=N)N)C(=O)N[C@@H](CCCCN)C(=O)N[C@@H](CCCCN)C(=O)N[C@@H](CCCNC(=N)N)C(=O)N[C@@H](CCCNC(=N)N)C(=O)N[C@@H](CCC(N)=O)C(=O)N[C@@H](CCCNC(=N)N)C(=O)N[C@@H](CCCNC(=N)N)C(=O)N[C@@H](CCCNC(=N)N)C(=O)N1CCC[C@H]1C(=O)N[C@@H](CCC(N)=O)C(N)=O | HEK293T | subcellular fractionation LC-MS | cytoplasm | 20 µM, 24 h |  | cytoplasmic peptide amount | 0.0504 nmol and 0.0514 nmol and 0.0528 nmol |
| CCN(CC)CCCC[C@H](NC(=O)[C@H](CC(C)C)NC(=O)[C@H](C)N(C)C(=O)[C@H](Cc1ccccc1)NC(=O)c1ccc(C(C)(C)C)cc1)C(=O)N[C@@H](CO)C(=O)OC | PC-3 | CellTiter-Glo |  | up to 100 µM, 48 h |  | cytotoxicity | not toxic |
| CN(C)CCCNC(=O)[C@@H]1NC(=O)[C@@H]2Cc3ccc(cc3)Oc3cc4cc(c3O)-c3ccc5c(c[nH]c5c3)C[C@@H](NC(=O)C(NC(=O)CCCCCN)c3ccc(O)cc3)C(=O)N[C@H](c3ccc(O)cc3)C(=O)N[C@H]4C(=O)N[C@@H](C(=O)N2C)c2ccc(cc2)Oc2cc1ccc2O (some centres unmarked) | human red blood cells |  | PBS | 256 µg/mL, 1 h, pH 7.4, 37 °C |  | hemolysis | 0% |
| NC(=S)N/N=C/c1ccc(OCc2ccccc2)cc1 | IMR-32 | MTT |  | 400 µg/mL, 24 h | reference: untreated control | viability | 35.4% |
| CNC(=O)C[C@H](Cc1ccc(F)cc1)NC(=O)[C@@H](Cc1ccc(Cl)cc1Cl)NC(=O)[C@H](N)Cc1ccccc1[N+](=O)[O-] | Huh-7-ACE2 | CellTiter-Glo |  | 0.0244 µM, 48 h, unit not given | reference: DMSO | viability | 1.09 and 1.06 and 0.991 |
| CCCCCCCCCCCCCC(=O)N[C@H]1C(=O)N[C@@H](CN)C(=O)N[C@@H](CO)C(=O)N[C@@H](Cc2ccc(O)cc2)C(=O)O[C@H]1C | HEK293 | MTT |  | 32 mg |  | survival | 83.9% |
| CNC(=O)CC[C@H](Cc1ccccc1)NC(=O)[C@@H](Cc1ccc(Cl)cc1Cl)NC(=O)[C@H](N)Cc1ccccc1[N+](=O)[O-] | Huh-7-ACE2 | CellTiter-Glo |  | 0.0977 µM, 48 h, unit not given | reference: DMSO | viability | 0.928 and 0.865 and 0.913 |
| CC[C@H](C)[C@@H]1NC(=O)[C@H](C)NC(=O)[C@@H](NC(=O)[C@H](CC(C)C)NC(=O)[C@@H](NC(=O)[C@H](CCCCN)NC(=O)[C@H](CCCNC(=N)N)NC(=O)[C@@H]2CCCN2C(=O)[C@H](CC(C)C)NC(=O)CN)[C@@H](C)CC)CSSC[C@@H]2NC(=O)[C@H](C(C)C)NC(=O)[C@H](CC(C)C)NC(=O)[C@H](CCCCN)NC(=O)[C@H](CC(C)C)NC(=O)[C@@H]3CCCN3C(=O)CNC(=O)[C@H](CCCCN)NC(=O)[C@H](CSSC[C@@H](C(N)=O)NC(=O)[C@H](CCCCN)NC2=O)NC(=O)[C@H](CCCCN)NC(=O)CNC(=O)[C@H](CCCCN)NC(=O)[C@H](CCCCN)NC(=O)[C@H](CCCCN)NC(=O)[C@H](C)NC1=O | RAW264.7 cells |  |  | 8 µM, 4 h |  | viability reduction | > 50% |
| CNC(=O)C[C@H](Cc1ccccc1)NC(=O)[C@@H](Cc1ccc(Cl)cc1Cl)NC(=O)[C@H](N)Cc1ccccc1C#N | Huh-7-ACE2 | CellTiter-Glo |  | 0.0244 µM, 48 h, unit not given | reference: DMSO | viability | 1.03 and 1.07 and 1.1 |
| CCCCCCCCCCCC(=O)N[C@@H](CO)C[C@@H](O)c1cccc(CCCCCC)c1 | HeLa |  |  | 1 µM, lipidomics treatment |  | living cells | 88% and 87% and 89% |
| C#Cc1ccc(N2CCOCC2)c(/C=N/NC(=O)CCl)c1 | THLE-2 | cytotoxicity, CellTiter-Glo |  | 24 h |  | IC50 | 73 µM |
| O[Si](CCCN1CCCCC1)(c1ccc(F)cc1)C1CCCCC1 (centres unmarked) | HEK293T | cytotoxicity |  | 3 days |  | IC50 | 40.8 µM |
| CC(C)C[C@H](NC(=O)[C@H](CC(N)=O)NC(=O)[C@H](CCCNC(=N)N)NC(=O)[C@@H](CC(C)C)NC(=O)[C@H](Cc1ccc(-c2ccccc2)cc1)NC(=O)[C@H](CC(=O)O)NC(=O)[C@H](CCCNC(=N)N)NC(=O)[C@@H](CC(C)C)NC(=O)[C@H](CCCCN)NC(=O)[C@H](CCC(N)=O)NC(=O)[C@@H](NC(=O)[C@@H](CC(C)C)NC(=O)[C@H](CCCCN)NC(=O)[C@H](CCCNC(=N)N)NC(=O)[C@H](Cc1ccc(-c2ccccc2)cc1)NC(=O)CN)C(C)C)C(=O)N[C@H](C(N)=O)C(C)C | HEK293 | cell viability, MTS |  | serum-free |  | LC50 | 20 µM |
| CCCCCCCCCCCC1CC(=O)N[C@H]([C@H](C)O)C(=O)N[C@@H](CN)C(=O)N[C@@H](CO)C(=O)N[C@@H](Cc2ccc(O)cc2)C(=O)O1 (some centres unmarked) | HEK293 | MTT |  | 32 mg |  | survival | 84.1% |
| Cc1ccc(NCCN(C)C)c2c(=O)c3cc(O)ccc3sc12 | HEK293T | loss of viability |  | 0.1 µM |  | cytotoxicity | < 10% |
| CNC(=O)CC1CN(C(=O)c2ccc(C(F)(F)F)cn2)CCN1C(=O)c1cccnn1 (centres unmarked) | Huh-7-ACE2 | CellTiter-Glo |  | 0.391 µM, 48 h, unit not given | reference: DMSO | viability | 1.13 and 1.06 and 1.08 |
| S=c1n(-c2ccccc2)c2c3ccccc3nc3[n+]2[n]1[Ir-3]12([S]3)([c]3cccc4ccc5ccc[n+]1c5c34)[c]1cccc3ccc4ccc[n+]2c4c13 | MRC9 | ICP-MS |  | 10 µM, 24 h, 37 °C |  | cellular iridium uptake | 1.01 ± 0.18 fmol/cell |
| CNC(=O)C[C@H](Cc1ccncc1)NC(=O)[C@@H](Cc1cccc(Br)c1)NC(=O)[C@@H](N)Cc1cccc(F)c1 | Huh-7-ACE2 | CellTiter-Glo |  | 0.391 µM, 48 h, unit not given | reference: DMSO | viability | 1.01 and 1.05 and 0.983 |
| O=C(Nc1cccnc1)c1cccc(C2(CNCc3ccc(F)c(F)c3)CC2)c1 | SH-SY5Y | sulforhodamine B |  | 100 µM, 72 h, cytotoxicity |  | cell density | > 100% |
| CCCCCCCCCCCC1CC(=O)N[C@@H]([C@@H](C)O)C(=O)N[C@@H](Cc2ccccc2)C(=O)N[C@@H]([C@@H](C)O)C(=O)N[C@H]([C@H](C)O)C(=O)N[C@@H]([C@@H](C)O)C(=O)N[C@@H](Cc2ccccc2)C(=O)O1 (some centres unmarked) | HEK293 | MTT |  | 32 mg |  | survival | -4.8% |
| CNC(=S)N/N=C/c1ccc(OCc2ccccc2)cc1 | IMR-32 | MTT |  | 50 µg/mL, 24 h | reference: untreated control | viability | 97.3% |
| CN1CCN(c2ccc(Nc3cc4[nH]c(-c5cccc(F)c5)cc4cn3)cc2)CC1 | SH-SY5Y | cytotoxicity, sulforhodamine B |  | 72 h |  | IC50 | 4.99 µM |

Some of these lines once more:
| SMILES | cell line | assay | system | setting | how to read | quantity | value |
| --- | --- | --- | --- | --- | --- | --- | --- |
| CC[C@H](C)[C@@H]1NC(=O)[C@H](C)NC(=O)[C@@H](NC(=O)[C@H](CC(C)C)NC(=O)[C@@H](NC(=O)[C@H](CCCCN)NC(=O)[C@H](CCCNC(=N)N)NC(=O)[C@@H]2CCCN2C(=O)[C@H](CC(C)C)NC(=O)CN)[C@@H](C)CC)CSSC[C@@H]2NC(=O)[C@H](C(C)C)NC(=O)[C@H](CC(C)C)NC(=O)[C@H](CCCCN)NC(=O)[C@H](CC(C)C)NC(=O)[C@@H]3CCCN3C(=O)CNC(=O)[C@H](CCCCN)NC(=O)[C@H](CSSC[C@@H](C(N)=O)NC(=O)[C@H](CCCCN)NC2=O)NC(=O)[C@H](CCCCN)NC(=O)CNC(=O)[C@H](CCCCN)NC(=O)[C@H](CCCCN)NC(=O)[C@H](CCCCN)NC(=O)[C@H](C)NC1=O | RAW264.7 cells |  |  | 8 µM, 4 h |  | viability reduction | > 50% |
| CNC(=O)C[C@H](Cc1ccccc1)NC(=O)[C@@H](Cc1ccc(Cl)cc1Cl)NC(=O)[C@H](N)Cc1ccccc1C#N | Huh-7-ACE2 | CellTiter-Glo |  | 0.0244 µM, 48 h, unit not given | reference: DMSO | viability | 1.03 and 1.07 and 1.1 |
| CCCCCCCCCCCC(=O)N[C@@H](CO)C[C@@H](O)c1cccc(CCCCCC)c1 | HeLa |  |  | 1 µM, lipidomics treatment |  | living cells | 88% and 87% and 89% |
